Assay results of several laboratories.
Protocols differ between the studies behind these lines.
Organism: Staphylococcus aureus

c1ccc(CCOC2CCCc3c2[nH]c2ccccc32)cc1 (stereo not drawn)  MIC (broth microdilution; Mu50 VISA): > 16 µg/mL
CC[C@H](C)[C@H](NC(=O)[C@H](CC(C)C)NC(=O)[C@@H](NC(=O)[C@H](Cc1ccc(O)cc1)NC(=O)[C@H](CO)NC(=O)CNC(=O)[C@H](CCCNC(=N)N)NC(=O)[C@H](CCCNC(=N)N)NC(=O)[C@H](CCCNC(=N)N)NC(=O)[C@@H]1CCCN1C(=O)[C@H](CCCCN)NC(=O)[C@H](Cc1c[nH]c2ccccc12)NC(=O)[C@@H](NC(=O)[C@H](Cc1c[nH]c2ccccc12)NC(=O)[C@H](CCCCN)NC(=O)[C@H](CCCNC(=N)N)NC(=O)[C@H](CCCNC(=N)N)NC(=O)[C@@H]1CCCN1C(=O)[C@H](CO)NC(=O)[C@H](CCCNC(=N)N)NC(=O)[C@H](CO)NC(=O)[C@H](CCCNC(=N)N)NC(=O)[C@@H](N)CCCNC(=N)N)[C@@H](C)O)[C@@H](C)O)C(=O)N[C@@H](CO)C(=O)N[C@@H](CCC(N)=O)C(=O)NCC(=O)NCC(=O)N[C@@H](CC(N)=O)C(=O)O  MIC (broth microdilution; MRSA CMCC 43300): 21.8 µM
CC[C@H](C)[C@H](NC(=O)[C@H](CCCNC(=N)N)NC(=O)[C@H](CCCNC(=N)N)NC(=O)[C@@H](N)CCCNC(=N)N)C(=O)N[C@@H](CO)C(=O)N[C@@H](Cc1ccccc1)C(=O)N[C@@H](CC(C)C)C(=O)NCC(=O)N[C@@H](CO)C(=O)N[C@@H](CCCCN)C(=O)N[C@H](C(=O)N[C@H](C(=O)N[C@H](C(=O)N[C@@H](CCCNC(=N)N)C(=O)N[C@@H](CCCNC(=N)N)C(=O)N[C@@H](CCCCN)C(=O)N[C@@H](CCCNC(=N)N)C(N)=O)C(C)C)C(C)C)C(C)C  MIC (broth microdilution; 24 h, 37 °C): 128 µM
CC[C@H](C)[C@H](N)C(=O)N[C@@H](CC(C)C)C(=O)NCC(=O)N[C@H](CCCNC(=N)N)C(=O)N[C@H](C(=O)N[C@@H](Cc1c[nH]c2ccccc12)C(=O)N[C@@H](CCCCN)C(=O)NCC(=O)N[C@H](C(=O)N[C@@H](CCCCN)C(=O)N[C@@H](CC(=O)O)C(=O)N[C@H](C(=O)N[C@@H](CC(C)C)C(N)=O)[C@@H](C)CC)[C@@H](C)CC)[C@@H](C)CC  MIC (broth microdilution; MRSA ATCC 33591, Mueller-Hinton broth; 16 h, 37 °C): 12.5 µM
CC[C@H](C)[C@H](NC(=O)[C@H](CC(C)C)NC(=O)[C@H](CCCNC(=N)N)NC(=O)[C@@H](N)CCCNC(=N)N)C(=O)N[C@@H](CCCNC(=N)N)C(=O)N[C@H](C(=O)N[C@@H](CC(C)C)C(=O)N[C@H](C(=O)NCC(=O)N1CCC[C@H]1C(=O)N[C@H](C(=O)N[C@H](C(=O)N[C@@H](Cc1ccc(O)cc1)C(=O)N[C@@H](CC(C)C)C(=O)N[C@@H](Cc1ccc(O)cc1)C(=O)N[C@@H](Cc1ccccc1)C(=O)N[C@@H](CCCCN)C(=O)N[C@@H](CC(C)C)C(=O)N[C@@H](CCC(N)=O)C(=O)N[C@@H](CC(C)C)C(=O)N[C@@H](CC(C)C)C(=O)N[C@@H](CCCCN)C(=O)N[C@@H](CCCCN)C(N)=O)[C@@H](C)CC)[C@@H](C)CC)[C@@H](C)O)[C@@H](C)O  MIC (CCARM 3089, methicillin-resistant, Mueller-Hinton broth; 24 h): > 128 µM
COC(=O)c1cc(-c2cccc(NC(=O)Nc3cccc(Cl)c3Cl)c2)on1  MIC (ATCC 29213, CAMHB; 16 to 18 h): 8 µg/mL
N=C(N)NCCC[C@H](NC(=O)[C@H](Cc1c[nH]c2ccccc12)NC(=O)[C@@H](N)CCCNC(=N)N)C(=O)N[C@@H](Cc1c[nH]c2ccccc12)C(=O)N[C@@H](Cc1ccccc1)C(=O)N[C@@H](CCC(N)=O)C(=O)N[C@@H](Cc1ccccc1)C(=O)N[C@@H](CCC(N)=O)C(=O)N[C@@H](Cc1ccccc1)C(=O)N[C@@H](CCCCN)C(N)=O  MIC (broth microdilution, optical density; ATCC 25923): 71 µM
Nc1nc(/C(=N/O)C(=O)N[C@@H]2C(=O)N3C(C(=O)O)=C(/C=C4\CCN([C@@H]5CCNC5)C4=O)CS[C@H]23)ns1  MIC (CRB, PBP4 deletion): 0.25 µg/mL
CC[C@H](C)[C@H](NC(=O)[C@H](Cc1c[nH]c2ccccc12)NC(=O)[C@@H](NC(=O)[C@H](Cc1c[nH]c2ccccc12)NC(=O)[C@@H]1CCCN1C(=O)[C@@H](NC(=O)[C@H](C)N)[C@@H](C)CC)[C@@H](C)CC)C(=O)N[C@@H](Cc1c[nH]c2ccccc12)C(=O)N[C@@H](CCCNC(=N)N)C(=O)N[C@@H](CC(C)C)C(=O)N[C@@H](CC(C)C)C(=O)N[C@@H](CCCNC(=N)N)C(=O)N[C@@H](CCCCN)C(=O)NCC(N)=O  MIC (broth microdilution; ATCC 35556; 18 h, 37 °C): 3.75 µM
CCCCCCCCCCCCN(C)C(=O)CP(=O)(O)O  MIC (ATCC 33591 methicillin-resistant): 200 µg/mL
CN[C@H](CC(C)C)C(=O)N[C@H]1C(=O)N[C@@H](CC(N)=O)C(=O)N[C@H]2C(=O)N[C@H]3C(=O)N[C@H](C(=O)N[C@H](C(=O)O)c4cc(O)cc(O)c4-c4cc3ccc4O)[C@H](O)c3ccc(c(Cl)c3)Oc3cc2cc(c3O[C@@H]2O[C@H](CO)[C@@H](O)[C@H](O)[C@H]2O[C@H]2C[C@](C)(N)[C@H](O)[C@H](C)O2)Oc2ccc(cc2Cl)[C@H]1O  MIC (methicillin-resistant): 1 µg/mL
CC[C@H](C)[C@H](NC(=O)CNC(=O)[C@H](C)NC(=O)[C@@H](NC(=O)[C@@H](NC(=O)[C@@H](NC(=O)[C@H](CCCNC(=N)N)NC(=O)[C@@H](NC(=O)[C@@H](NC(=O)[C@@H](NC(=O)[C@@H]1CCCN1C(=O)[C@H](Cc1c[nH]c2ccccc12)NC(=O)[C@@H](NC(=O)[C@H](CCCNC(=N)N)NC(=O)[C@H](CCCCN)NC(=O)[C@@H](NC(=O)[C@@H](N)CCCNC(=N)N)[C@@H](C)CC)C(C)C)C(C)C)C(C)C)[C@@H](C)CC)[C@@H](C)O)C(C)C)C(C)C)C(=O)N[C@@H](CC(N)=O)C(=O)N[C@@H](CC(C)C)C(=O)N[C@@H](Cc1ccc(O)cc1)C(=O)N[C@@H](CCCNC(=N)N)C(=O)N[C@@H](C)C(=O)N[C@H](C(=O)N[C@@H](CCCCN)C(=O)N[C@@H](CCCNC(=N)N)C(=O)N[C@@H](CCCCN)C(=O)O)[C@@H](C)CC  MIC (broth microdilution; ATCC 29213, Mueller-Hinton broth; 16 to 20 h, 37 °C): 1.41 µM
CC[C@H](C)[C@H](NC(=O)[C@H](CCCCN)NC(=O)[C@H](CCCCN)NC(=O)CNC(=O)[C@H](CCCCN)NC(=O)[C@H](CC(C)C)NC(=O)[C@H](CCCCN)NC(=O)[C@H](CCCNC(=N)N)NC(=O)[C@@H](NC(=O)[C@H](CC(C)C)NC(=O)[C@H](CCCNC(=N)N)NC(=O)[C@@H](N)CCCNC(=N)N)[C@@H](C)CC)C(=O)N[C@@H](Cc1ccc(O)cc1)C(=O)N[C@@H](CC(C)C)C(=O)N[C@@H](Cc1ccc(O)cc1)C(=O)N[C@@H](Cc1ccccc1)C(=O)N[C@@H](CCCCN)C(=O)N[C@@H](CC(C)C)C(=O)N[C@@H](CCC(N)=O)C(=O)N[C@@H](CC(C)C)C(=O)N[C@@H](CC(C)C)C(=O)N[C@@H](CCCCN)C(=O)N[C@@H](CCCCN)C(N)=O  MIC (KCTC 1621, Mueller-Hinton broth; added: 4.5 mM KCl): 32 µM
CCCCCCCCCC(=O)N[C@@H](Cc1c[nH]c2ccccc12)C(=O)N[C@H](CC(N)=O)C(=O)N[C@@H](CC(=O)O)C(=O)N[C@@H]1C(=O)NCC(=O)N[C@@H](CCCN)C(=O)N[C@@H](CC(=O)O)C(=O)N[C@H](C)C(=O)N[C@@H](CC(=O)O)C(=O)NCC(=O)N[C@H](CO)C(=O)N[C@@H]([C@H](C)CC(=O)O)C(=O)N[C@@H](CC(=O)c2ccccc2N)C(=O)O[C@@H]1C  MIC (broth microdilution; ATCC 6538; 24 h): 7.7 µM
Cc1ccc2[nH]c3c(c2c1)CCCC3NCCc1ccc(Br)cc1 (stereo not drawn)  MIC (broth microdilution; HG001): 4 µg/mL
CC[C@H](C)[C@H](NC(=O)[C@H](CC(C)C)NC(=O)[C@H](CCCCN)NC(=O)[C@@H](NC(=O)[C@H](C)NC(=O)[C@H](CCC(=O)O)NC(=O)[C@H](Cc1c[nH]cn1)NC(=O)[C@@H](NC(=O)[C@H](CCCCN)NC(=O)[C@H](CCC(N)=O)NC(=O)[C@H](Cc1ccccc1)NC(=O)[C@@H](N)C(C)C)[C@@H](C)CC)[C@@H](C)CC)C(N)=O  MIC (CLSI broth microdilution; ATCC 25923; 18 h, 37 °C): > 128 µM
CC[C@H](C)[C@H](NC(=O)[C@H](CC(C)C)NC(=O)[C@H](CCCNC(=N)N)NC(=O)[C@@H](N)CCCNC(=N)N)C(=O)N[C@@H](CCCNC(=N)N)C(=O)N[C@H](C(=O)N[C@@H](CCCCN)C(=O)N[C@H](C(=O)NCC(=O)N1CCC[C@H]1C(=O)N[C@H](C(=O)N[C@H](C(=O)N[C@@H](Cc1ccc(O)cc1)C(=O)N[C@@H](CCCCN)C(=O)N[C@@H](Cc1ccc(O)cc1)C(=O)N[C@@H](Cc1ccccc1)C(=O)N[C@@H](CCCCN)C(=O)N[C@@H](CCCCN)C(=O)N[C@@H](CCC(N)=O)C(=O)N[C@@H](CC(C)C)C(=O)N[C@@H](CC(C)C)C(=O)N[C@@H](CCCCN)C(=O)N[C@@H](CCCCN)C(N)=O)[C@@H](C)CC)[C@@H](C)CC)[C@@H](C)O)[C@@H](C)O  MIC (CCARM 3089, methicillin-resistant, Mueller-Hinton broth; 24 h): > 128 µM
CC[C@@H](C)[C@@H](N)C(=O)N[C@@H](C(=O)N[C@H](Cc1ccc(O)cc1)C(=O)N[C@@H](C(=O)N[C@H](CCN)C(=O)N[C@H](CC(C)C)C(=O)N[C@H](CO)C(=O)N[C@H](CCN)C(=O)N[C@@H](C(=O)N[C@H](CCN)C(=O)N[C@H](Cc1c[nH]cn1)C(=O)N[C@H](CCN)C(=O)N[C@H](C)C(=O)N[C@H](CCN)C(=O)N[C@H](CCN)C(N)=O)[C@H](C)CC)[C@H](C)CC)[C@H](C)CC  MIC (ATCC 43300, Mueller-Hinton broth): 4 µg/mL

Repeated from above:
COC(=O)c1cc(-c2cccc(NC(=O)Nc3cccc(Cl)c3Cl)c2)on1  MIC (ATCC 29213, CAMHB; 16 to 18 h): 8 µg/mL
N=C(N)NCCC[C@H](NC(=O)[C@H](Cc1c[nH]c2ccccc12)NC(=O)[C@@H](N)CCCNC(=N)N)C(=O)N[C@@H](Cc1c[nH]c2ccccc12)C(=O)N[C@@H](Cc1ccccc1)C(=O)N[C@@H](CCC(N)=O)C(=O)N[C@@H](Cc1ccccc1)C(=O)N[C@@H](CCC(N)=O)C(=O)N[C@@H](Cc1ccccc1)C(=O)N[C@@H](CCCCN)C(N)=O  MIC (broth microdilution, optical density; ATCC 25923): 71 µM
